{"data": "Literature values, collected from citations in different studies", "note": "Compare with care: the assays were run in different laboratories. ± gives the spread as reported.", "UniProt P21554, sequence (whole entry, looked up)": "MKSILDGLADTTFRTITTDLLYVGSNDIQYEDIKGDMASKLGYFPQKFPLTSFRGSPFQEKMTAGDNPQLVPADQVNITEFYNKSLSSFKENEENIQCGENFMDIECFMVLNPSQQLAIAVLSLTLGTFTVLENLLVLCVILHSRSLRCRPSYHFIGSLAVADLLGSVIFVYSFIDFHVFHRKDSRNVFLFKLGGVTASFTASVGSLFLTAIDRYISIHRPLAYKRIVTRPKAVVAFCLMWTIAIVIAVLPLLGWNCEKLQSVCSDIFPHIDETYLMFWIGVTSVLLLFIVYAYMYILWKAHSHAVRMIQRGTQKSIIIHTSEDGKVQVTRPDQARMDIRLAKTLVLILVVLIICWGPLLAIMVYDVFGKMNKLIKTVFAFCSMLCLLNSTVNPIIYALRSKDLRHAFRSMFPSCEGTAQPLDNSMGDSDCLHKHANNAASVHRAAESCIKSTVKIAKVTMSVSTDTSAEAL"}
{"SMILES": "CNC(=O)c1cc2c(Oc3ccc(NC(=S)NC(=O)Cc4ccccc4)cc3F)ccnc2cc1OC", "target": "CYP3A, human", "test": "enzyme activity, reversible inhibitor", "setting": "with: midazolam", "quantity": "IC50", "value": "4.49 µM"}
{"SMILES": "Cc1ccc(OCC(=O)N(Cc2cccs2)c2ccn[nH]2)cc1", "target": "CYP3A4 (human)", "test": "inhibitor", "test system": "pooled human liver microsomes", "setting": "10 µM, with: midazolam substrate", "quantity": "CYP3A4 inhibition", "value": "inhibited"}
{"SMILES": "C1CO1", "target": "glutathione S-transferase", "test": "glutathione conjugation, substrate", "test system": "rat, liver cytosol", "quantity": "Km", "value": "10000 µM"}
{"SMILES": "CN(C)C(=O)CCSC(SCCC(=O)O)c1cccc(/C=C/c2ccc3ccc(Cl)cc3n2)c1 (stereo not drawn)", "target": "MRP2 (ABCC2)", "test": "inhibitor", "quantity": "IC50", "value": "10 µM"}
{"SMILES": "CN1CCC[C@H]1c1cccnc1", "target": "CYP2B6", "test": "substrate", "quantity": "Km", "value": "184 to 269 µM"}
{"SMILES": "CN(C)C(=O)C(CCN1CCC(O)(c2ccc(Cl)cc2)CC1)(c1ccccc1)c1ccccc1", "target": "P-glycoprotein, human", "test": "measured: 11C radioactivity brain to plasma", "test system": "healthy human volunteers", "setting": "intravenous, dose not given, with: ciclosporin 10 mg/kg intravenous infusion", "quantity": "brain distribution increase", "value": "110%"}
{"SMILES": "Cc1ccc(OC(C)(C)C(=O)N[C@@H](C)[C@@H](Cc2ccc(OCCF)cc2)c2cccc(C#N)c2)nc1 [fluorine-18 labelled]", "target": "CNR1 (Homo sapiens, UniProt P21554)", "test": "PET", "test system": "human, frontal cortex", "quantity": "VT", "value": "22.4 ± 13.1 mL/cm³"}
{"SMILES": "C[C@@H](c1nc(-c2ccc(C#N)cc2)cs1)[C@](O)(Cn1cncn1)c1cc(F)ccc1F", "target": "UGT2B7 human", "test": "inhibitor", "test system": "human liver microsomes", "setting": "with: morphine", "quantity": "IC50", "value": "44 µM"}
{"SMILES": "O=C1OC(c2ccc(O)c(S(=O)(=O)O)c2)(c2ccc(O)c(S(=O)(=O)O)c2)c2c(Br)c(Br)c(Br)c(Br)c21", "target": "OATP2B1, human", "test": "uptake, substrate", "test system": "HEK293 OATP2B1 transfected", "quantity": "Km", "value": "5.4 µM"}
{"note": "Excerpt of the above:"}
{"SMILES": "O=C1OC(c2ccc(O)c(S(=O)(=O)O)c2)(c2ccc(O)c(S(=O)(=O)O)c2)c2c(Br)c(Br)c(Br)c(Br)c21", "target": "OATP2B1, human", "test": "uptake, substrate", "test system": "HEK293 OATP2B1 transfected", "quantity": "Km", "value": "5.4 µM"}
